Published values pooled from the literature.
Each numbered part is a random draw from the data of one study; scales do not carry over between parts. Substitutions count along the parent as printed.

Sample 1 — technique: RNA Bind-n-Seq; form: RNA; medium: in vitro; concentration: 365 nM; baseline: no-protein control; reading: higher = stronger binding
Target: RNA binding protein fox-1 homolog 2, RRM domain, GST-SBP tag (RBFOX2, Homo sapiens, UniProt O43251-10, residues 100-194)
Setting: natural RNA segment, single round, ends assumed
Shared flanks, not repeated: GGGAGUUCUACAGUCCGACGAUC … UGGAAUUCUCGGGUGCCAA
Construct (chain): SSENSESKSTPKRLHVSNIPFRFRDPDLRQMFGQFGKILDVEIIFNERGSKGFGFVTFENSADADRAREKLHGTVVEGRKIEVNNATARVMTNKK
Under “RBNS enrichment (R)”, `AAUCAGCCCCUAAUUUCUCCAUGUUUACACUUCAAUCUGCAGGCUUCUUAAAGUGACAGUAUCCCUUAACCUGCCACCAGUGUCCACCCUCCGGCCCCCGUCUUGUAAAA` is recorded as 0.534.
Under “RBNS enrichment (R)”, `GACUGACAUCCCAGGUGUCACAGGCUCAGGGAGUGGCACCAGGUCACCUCUCCAGGGACUGAGCAUCAUUGGCUCAUUGUCAUGGGGAGCUCCCUCCUGACCACGGAGGC` is recorded as 0.354.
Under “RBNS enrichment (R)”, `CAGACAGGACAGCUGGACCACAGAGUUUAUUUUUGUAUUUCUUAUUGGGCCUGUACACUCCAGCUCUAAGGGCCAGUAGUUUGAAGCCCUAUAAGUGGUGCCCAGUGUUC` is recorded as 0.356.
For `GUGCCUUGGGCCCUGAAGCCCCAUAUGUAGUAUAGAGCAAAGGUGGCUCCUGGUGAAGAGAGGGUGGAAAGGCCCUUCAGCCCCAGGGCCAUGUCUGGGUUCUCCAUGCC`, “RBNS enrichment (R)” read 0.408.
`UAAGAGUCAGUUCUUCAAUUCUGGUCCCAUUAUCUCCAAGUGCCUUUUUUACAGUGACAACAGACAGUCCCUCGGUUUCAUGUCUUUUCGUAACCCUUUCAAUUGAACUG` — result for “RBNS enrichment (R)”: 0.363.
For `UAUCUCAGCUUGCUGAGGGGCAGGGAGAGGGUCUCUUCCUCUGGGCAGCACUAUCUAGAUAGGUAAGUGGGGGCGGGGAAGGGUGCAUAGCUGUUUUAGCCGAGGGACUC`, “RBNS enrichment (R)” read 0.618.
`AUCCCAGGCUUGCCCCCGAGCCCUCCUGUCCUUCUGGGUUUGUGUUUGCCUUGCCUGGUGCUUCCUCCCUCAUUGUGUUGUUGAAUAGACCUAGGCAGCCUUGUAUCCAU` — result for “RBNS enrichment (R)”: 0.739.
For `UUCCUCACUGAAACAAGUUAUUUUUGCUUCAUAUAGUCAGAGUCAGACUGACAUGAUAAAAUAUCAUGUUCCUAAUCUGUUGUCUCAGAUAAGUGACCAAGACGGGACUU`, “RBNS enrichment (R)” read 0.204.
For `AUAGAGGUUUGGACAGACCCGGCAAGUGGUGACUACCGGUAAUUGUAGGAACACGCCUGUCACCUAACAUCCAAGCACGCUCACAAACCUGCAGGCAUAUCAUUGGCGUA`, “RBNS enrichment (R)” read 0.936.
`UGAGAUGUCACCAUUUGUCUUUCACAGUGACUUCCUUCCCUGAGCAAACAUUCAUGUGGCUUCGCUGGGGAGGAAAAAAAUAAGCACCUACUGUGUGCCAGGCACUAUGA` — result for “RBNS enrichment (R)”: 0.334.
Under “RBNS enrichment (R)”, `GGUGAGACGGCUGUUUCCAUCAAGAACUCCUAGCACUGCUGUAAAUAUCAUGGUGCCUACUGGAAGGGAAUGUAGAUGCUAUGCAUUUUGGAAAUAAUCUGCAUCUGUUA` is recorded as 3.05.
`UCCACCGUGGUGUUUCUGCAGGGCCCAGAGCUAAGAACAAACAAAGUUAUAAGAACGUACACAGUGAAAGGAGUACAAGAGCAGUGUAAAGAAAUAGUUUUCUUAGAUAU` — result for “RBNS enrichment (R)”: 0.345.

Sample 2 — technique: universal PBM; form: double-stranded DNA, one strand shown; medium: in vitro; concentration: 600 nM; reading: higher = stronger binding
Target: Sal-like protein 4, full length isoform A (SALL4, Homo sapiens, UniProt Q9UJQ4, residues 1-1053)
UniProt Q9UJQ4, sequence (whole entry, looked up): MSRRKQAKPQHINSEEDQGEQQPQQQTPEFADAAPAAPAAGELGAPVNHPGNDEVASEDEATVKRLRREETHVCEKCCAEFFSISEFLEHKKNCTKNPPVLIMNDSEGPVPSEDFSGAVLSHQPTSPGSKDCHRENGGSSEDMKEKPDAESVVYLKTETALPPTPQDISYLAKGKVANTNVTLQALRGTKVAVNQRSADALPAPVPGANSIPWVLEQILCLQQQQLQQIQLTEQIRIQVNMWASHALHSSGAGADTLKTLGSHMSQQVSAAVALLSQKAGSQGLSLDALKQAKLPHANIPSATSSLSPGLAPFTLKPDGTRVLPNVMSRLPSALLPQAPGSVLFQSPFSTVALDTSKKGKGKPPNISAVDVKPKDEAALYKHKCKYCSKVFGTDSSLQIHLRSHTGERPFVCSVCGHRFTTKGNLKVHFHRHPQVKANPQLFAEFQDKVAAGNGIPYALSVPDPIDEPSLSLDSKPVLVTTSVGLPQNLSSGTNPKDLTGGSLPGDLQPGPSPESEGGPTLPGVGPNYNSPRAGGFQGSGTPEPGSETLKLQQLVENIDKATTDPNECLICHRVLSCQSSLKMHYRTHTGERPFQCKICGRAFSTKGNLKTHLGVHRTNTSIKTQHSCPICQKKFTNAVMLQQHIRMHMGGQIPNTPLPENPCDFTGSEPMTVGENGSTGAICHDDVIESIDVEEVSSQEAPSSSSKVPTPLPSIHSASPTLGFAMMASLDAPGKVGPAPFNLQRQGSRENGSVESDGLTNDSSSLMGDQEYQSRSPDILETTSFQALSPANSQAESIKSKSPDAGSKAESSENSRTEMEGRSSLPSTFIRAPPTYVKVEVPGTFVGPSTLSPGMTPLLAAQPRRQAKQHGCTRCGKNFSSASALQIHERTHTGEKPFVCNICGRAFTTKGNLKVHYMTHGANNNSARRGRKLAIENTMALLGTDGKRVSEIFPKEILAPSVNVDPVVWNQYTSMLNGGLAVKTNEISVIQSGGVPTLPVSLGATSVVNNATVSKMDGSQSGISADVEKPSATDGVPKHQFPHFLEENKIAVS
Setting: 8-mer, flanks averaged, mean of replicates
For `ATCAACCC`, the E-score was 0.04.
`CCTCCGTC` has an E-score of -0.256.
`GATCCACC` has an E-score of -0.198.
With `ATTTGACA` the E-score was 0.289.
The E-score of `GTGTCAAC` is reported as -0.106.
With `CAAGCGTA` the E-score was -0.059.
The E-score of `GGAGGCGA` is reported as -0.249.
For `AGGGTCAA`, the E-score was -0.0418.
The E-score of `GATTATCC` is reported as -0.0659.
`TTTCGAAA` has an E-score of 0.266.
`AATTAGGT` gave an E-score of 0.24.
For `GGATTTTA`, the E-score was 0.204.
`CCTGCCAC` has an E-score of -0.188.
For `ACGTTCAA`, the E-score was 0.106.
For `AAAAGCGC`, the E-score was 0.157.
`ATTCCCGG` has an E-score of -0.0556.

Sample 3 — target: CCND3, cyclin fold, Cln2 fusion (human); technique: yeast growth competition, sequencing; medium: yeast; setting: weak parent motif; baseline: not given; reading: higher = stronger binding
Starting sequence: ANKRD17 docking peptide (human); PSVRRQLFVTVVK; partner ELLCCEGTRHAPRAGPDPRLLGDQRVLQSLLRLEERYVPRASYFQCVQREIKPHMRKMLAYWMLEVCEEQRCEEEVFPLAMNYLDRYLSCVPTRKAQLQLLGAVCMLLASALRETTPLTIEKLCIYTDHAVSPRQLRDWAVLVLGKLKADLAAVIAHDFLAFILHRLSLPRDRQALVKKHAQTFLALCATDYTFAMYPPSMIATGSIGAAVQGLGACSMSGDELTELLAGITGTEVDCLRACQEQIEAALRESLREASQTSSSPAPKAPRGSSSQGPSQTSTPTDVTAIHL
`PAVRRQLFVTVVK [S2A]` — result for “normalised enrichment score”: 0.168.
For `PSVRRQLFVTVAK [V12A]`, “normalised enrichment score” read 0.202.
For `PSVRRQLFVTVVA [K13A]`, “normalised enrichment score” read 0.0861.
For `PSVRRQLFATVVK [V9A]`, “normalised enrichment score” read 0.113.
For `PSVRRQLAVTVVK [F8A]`, “normalised enrichment score” read 0.176.
`PSVRRQLLVTVVK [F8L]`: “normalised enrichment score” -0.186.
`PSVARQLFVTVVK [R4A]`: “normalised enrichment score” 0.124.
`PSVRKQLFVTVVK [R5K]` — result for “normalised enrichment score”: -0.0897.
Under “normalised enrichment score”, `PSVRAQAFVTVVK [R5A L7A]` is recorded as 0.0147.
`ASVRRQLFVTVVK [P1A]` — result for “normalised enrichment score”: 0.123.

Sample 4 — technique: competition protein-binding microarray; form: double-stranded DNA, one strand shown; medium: in vitro; concentration: 2 µM; with: Pho4 competitor, 0.05 µM; reading: higher = stronger binding; shared flanks, not repeated: … GTCTTGATTCGCTTGACGCTGCTG
Target: Centromere-binding protein 1, full length, His-tagged (CBF1, Saccharomyces cerevisiae, UniProt P17106, residues 1-351)
UniProt P17106, sequence (whole entry, looked up): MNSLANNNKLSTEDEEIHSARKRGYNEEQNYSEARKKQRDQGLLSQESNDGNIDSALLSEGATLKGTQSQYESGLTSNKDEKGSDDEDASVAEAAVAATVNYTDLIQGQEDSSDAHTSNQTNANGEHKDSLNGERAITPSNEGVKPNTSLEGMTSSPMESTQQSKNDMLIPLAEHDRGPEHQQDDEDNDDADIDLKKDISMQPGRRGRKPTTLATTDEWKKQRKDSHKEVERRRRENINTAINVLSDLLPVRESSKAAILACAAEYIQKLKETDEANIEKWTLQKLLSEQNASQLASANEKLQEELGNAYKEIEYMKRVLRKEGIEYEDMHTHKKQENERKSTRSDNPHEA
Setting: whole 60-bp probe, lowest competitor level
With `AACTAGATGTTGTCTATCGTGATGGGAAACCAGAGA` the fluorescence intensity was 89.7 a.u.
For `GGAAGTCCACACCGAAGTGTGACGGCTGAGTCTGTG`, the fluorescence intensity was 51.6 a.u.
For `CGGGGTTAAGTTTGGTGCGTGGGTGGCTTGCAGCAG`, the fluorescence intensity was 73.3 a.u.
With `TCGGTGCGATTATTCTTCGTGCTTTAACAAGATGAG` the fluorescence intensity was 84.3 a.u.
`AGGGTACCTCTTCTAAACGTGCCGAAGAACACTCGA` gave a fluorescence intensity of 86.7 a.u.
`GAACCATTGTCTTTGCACGTTGACACCTATGGTACT` gave a fluorescence intensity of 121 a.u.
`TCCTTGTTGACTTACCACATGTGTGGCCGCCTTTTA` gave a fluorescence intensity of 94.4 a.u.
`CTTCTGTAAATTTGAGTAGTGGGTGGACGCGCCCCG` gave a fluorescence intensity of 97.7 a.u.
With `CTAACGAAGGTTTGTCACAATACTTACAAGCCAAGT` the fluorescence intensity was 94.7 a.u.
For `ATCCGCGCCCTTTGGCGTGTTCACCACAGAGTCGCG`, the fluorescence intensity was 58 a.u.
The fluorescence intensity of `GCGGGCCGCTTTCCGCACGGCCTTATCTGGGGAATG` is reported as 57 a.u.
For `CCAACCTGGCTTGCCCACGAGGATGGCTTTCTGGCT`, the fluorescence intensity was 68.2 a.u.
The fluorescence intensity of `ACTCTGCAATTCTATCAGTAGGTGGTGCAACCGCGT` is reported as 73.6 a.u.
With `AAATTACTAAGTTTTCACGTGACTTACCCCGTATGA` the fluorescence intensity was 7840 a.u.
The fluorescence intensity of `TGCGCAACAACTTCTCACGTGTTTTTATGTCTAGAA` is reported as 1570 a.u.
`CGTCCTAGTGATTGGCAAGTGGGTGCCATGAGGAAG` has a fluorescence intensity of 75 a.u.
`CATTGCTAGCTCCTCTCCGTGACGGTTATTCAGTGT` gave a fluorescence intensity of 91 a.u.
The fluorescence intensity of `CGTCCTAGTGATTGCATCGTGGGTGCCATGAGGAAG` is reported as 96.3 a.u.
`CCTGCCCGGTCTCCACACGTGGGTAGCCAGAGCCCG` gave a fluorescence intensity of 346 a.u.
`AAATTACTAAGTTTGCACGTGTTTTACCCCGTATGA` has a fluorescence intensity of 2210 a.u.
The fluorescence intensity of `CGGGGTTAAGTTTGGAAGGTGGGTGGCTTGCAGCAG` is reported as 75.8 a.u.
`CGGGGTTAAGTTTGCGGGGTGGGTGGCTTGCAGCAG` gave a fluorescence intensity of 83.7 a.u.
With `ATATAGTAAATAAAACACGTGATGGATTTGAAATGT` the fluorescence intensity was 6800 a.u.
With `AGGCCAATGCTGCTAAGCGTGCTAAAGCCAAGGCCC` the fluorescence intensity was 54.9 a.u.
For `TTCTACAAAGCATTTCACATGCTAATAAAAGCCCCG`, the fluorescence intensity was 158 a.u.

Sample 5 — technique: DHFR PCA, deep sequencing; medium: yeast; with: (+)-ABA 1.4 µM; baseline: wild-type fitted maximum; reading: higher = stronger binding
Target: ABI1, truncated, D143A, DHFR fusion (Arabidopsis thaliana)
Setting: methotrexate growth selection, single substitutions
Starting sequence: PYL1, truncated, DHFR fusion (Arabidopsis thaliana); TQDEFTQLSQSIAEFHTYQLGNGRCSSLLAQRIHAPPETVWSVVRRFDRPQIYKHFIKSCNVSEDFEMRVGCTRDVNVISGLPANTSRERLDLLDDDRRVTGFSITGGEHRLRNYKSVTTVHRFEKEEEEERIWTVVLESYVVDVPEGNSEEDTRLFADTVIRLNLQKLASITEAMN; partner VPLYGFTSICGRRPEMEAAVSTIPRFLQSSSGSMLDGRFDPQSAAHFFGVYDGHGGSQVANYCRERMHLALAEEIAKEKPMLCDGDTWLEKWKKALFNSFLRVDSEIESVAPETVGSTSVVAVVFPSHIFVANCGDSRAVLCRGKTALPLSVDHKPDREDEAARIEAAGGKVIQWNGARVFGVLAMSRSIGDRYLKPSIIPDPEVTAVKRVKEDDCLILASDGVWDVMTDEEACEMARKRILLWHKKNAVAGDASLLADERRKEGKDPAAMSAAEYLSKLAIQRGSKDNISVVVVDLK
`K116F` — result for “relative binding score”: -2.25%.
Under “relative binding score”, `D75S` is recorded as 56.8%.
`L169A` — result for “relative binding score”: -1.14%.
`R111I`: “relative binding score” 3.59%.
`I162P`: “relative binding score” 0.598%.
`A84M` — result for “relative binding score”: 34.8%.
`L164N` — result for “relative binding score”: -1.29%.
`K58Q` — result for “relative binding score”: 41.6%.
`N177V`: “relative binding score” 64.2%.
Under “relative binding score”, `E4K` is recorded as 24%.
`F124H`: “relative binding score” 15.8%.
Under “relative binding score”, `M68D` is recorded as -9.43%.
`T106K` — result for “relative binding score”: 6.31%.
For `P36C`, “relative binding score” read 36.3%.
`N165C`: “relative binding score” 7.36%.
`C72H` — result for “relative binding score”: 18.2%.
For `R24M`, “relative binding score” read 50.3%.
Under “relative binding score”, `T17M` is recorded as 18.1%.
Under “relative binding score”, `E139M` is recorded as 22.6%.
`S171N`: “relative binding score” 45.4%.

Repeated from above (sample 3):
`PAVRRQLFVTVVK [S2A]` — result for “normalised enrichment score”: 0.168.
For `PSVRRQLFVTVAK [V12A]`, “normalised enrichment score” read 0.202.
For `PSVRRQLFVTVVA [K13A]`, “normalised enrichment score” read 0.0861.
For `PSVRRQLFATVVK [V9A]`, “normalised enrichment score” read 0.113.
For `PSVRRQLAVTVVK [F8A]`, “normalised enrichment score” read 0.176.
`PSVRRQLLVTVVK [F8L]`: “normalised enrichment score” -0.186.
